Earlier results, collected from citations in different studies.
Protocols differ between the studies behind these lines. ± marks the error that the study gave.

| Substance | target or system | test | system | conditions | measurement | value |
| --- | --- | --- | --- | --- | --- | --- |
| Cymbidium agglutinin | human cytomegalovirus | viral replication |  |  | EC50 | 350 nM |
| CC(C)c1cnn2c(NCc3ccccc3-n3cccn3)nc(OC3CCCNC3)nc12 (centres unmarked) | human cytomegalovirus | viral replication |  | mean value | EC50 | 10 nM |
| CC(C)Oc1cc(NC(=N)c2ccccn2)ccc1-c1ccc(-c2ccc(NC(=N)c3ccccn3)cc2OC(C)C)s1 | Trypanosoma cruzi |  | Y strain, bloodstream trypomastigotes | 24 h, 37 °C | EC50 | 20 nM |
| Cn1c(C(=O)NCCCc2c[nH]c(N)n2)cc(Br)c1Br | Pseudomonas aeruginosa | biofilm dispersion | PA14 | 50% dispersion | EC50 | 215000 nM |
| O=C(N[C@@H](Cn1ccnc1)c1ccc(Cl)cc1Cl)c1ccc(-c2nnc(-c3ccccc3)o2)cc1 | Trypanosoma cruzi |  | amastigotes |  | EC50 | 1.2 nM |
| Cc1ccccc1-c1cc(N2CCN(C)CC2)ncc1N(C)C(=O)C(C)(C)c1cc(C(F)(F)F)cc(C(F)(F)F)c1 |  |  | patients, plasma | oral, dose not given, netupitant-palonosetron combination, together with: cyclophosphamide 500 to 1000 mg/m^2 IV | Vz/F | 2260 L |
| O=C(Nc1ncnc2c1ncn2[C@@H]1O[C@@H]2COP(=O)(O)OC2C1O)c1ccccc1 (stereo in doubt) | PDE5 | cyclic nucleotide hydrolysis, substrate or inhibitor, isothermal titration calorimetry |  |  | Km or Ki | 68900 nM |
| Cc1cn([C@H]2C[C@H](N=[N+]=[N-])[C@@H](CO)O2)c(=O)[nH]c1=O | HIV-1 |  | MT-4, LAI.04 |  | EC50 | 3 nM |
| CCCCCCCCCCCCCCCCOP(=O)([O-])OCC[N+](C)(C)C | Leishmania donovani |  | intramacrophage amastigotes |  | EC50 | 900 nM |
| C[C@]12CC[C@@H]3c4ccc(O)cc4CC[C@H]3[C@@H]1CC[C@H]2O | HT-22 | cell protection |  | together with: iodoacetic acid 20 µM | EC50 | 3380 nM |
| Nc1nc2c(ncn2/C=C2/CC2(CO)CO)c(=O)[nH]1 | human cytomegalovirus | viral replication, plaque reduction | HFF, AD169 |  | EC50 | 1200 ± 800 nM |
| CC[C@@H]([C@H](C)O)n1ncn(-c2ccc(N3CCN(c4ccc(OC[C@@H]5CO[C@@](Cn6cncn6)(c6ccc(F)cc6F)C5)cc4)CC3)cc2)c1=O | Leishmania donovani | growth | LV82 promastigote |  | EC50 | 2800 nM |
| O=C(Cn1ccnc1[N+](=O)[O-])NCc1ccccc1 | Trypanosoma cruzi | trypanocidal activity | Y, trypomastigotes |  | EC50 | 34500 ± 7600 nM |
| O=c1c2nc(Br)n([C@@H]3O[C@@H]4COP(=O)(O)O[C@H]4[C@H]3O)c2nc2[nH]c(-c3ccccc3)cn12 | PDE2A | cyclic nucleotide hydrolysis, substrate or inhibitor, isothermal titration calorimetry |  |  | Km or Ki | 98600 nM |
| C[C@H]1c2cccc(O)c2C(=O)C2=C(O)[C@]3(O)C(=O)C(C(N)=O)=C(O)[C@@H](N(C)C)[C@@H]3[C@@H](O)[C@@H]21 | Plasmodium falciparum | parasite growth | blood stage | together with: IPP supplementation | EC50 | 3200 nM |
| Nc1ccn([C@@H]2CS[C@H](CO)O2)c(=O)n1 | hepatitis B virus | viral replication |  | published cell culture systems | EC50 | 6 to 30 nM |
| C[C@]12CCC[C@@H]1[C@H]1CCc3cc(O)ccc3[C@@H]1CC2 (single isomer, unassigned) | HT-22 | cell protection |  | together with: iodoacetic acid 40 µM | EC50 | 129 nM |
| Nc1c(Cc2cccc3ccccc23)c(C2CC2)c2n(c1=O)C(C(=O)Nc1ccccc1)CS2 (centres unmarked) | Chlamydia trachomatis | infectivity | serovar L2 |  | EC50 | < 60 nM |
| OC(CN1CCC2(CC1)CC(O)c1ccc3ccccc3c1O2)c1ccc(F)c(F)c1 (centres unmarked) | Plasmodium falciparum |  | Dd2 chloroquine-resistant |  | EC50 | 350 nM |
| COc1ccc(C(=O)NN=Cc2ccc(O)c3ncccc23)cc1 | Staphylococcus aureus | bacterial growth | methicillin-resistant |  | EC50 | 56000 nM |

Repeated from above:
| Substance | target or system | test | system | conditions | measurement | value |
| --- | --- | --- | --- | --- | --- | --- |
| O=C(Cn1ccnc1[N+](=O)[O-])NCc1ccccc1 | Trypanosoma cruzi | trypanocidal activity | Y, trypomastigotes |  | EC50 | 34500 ± 7600 nM |
| Nc1c(Cc2cccc3ccccc23)c(C2CC2)c2n(c1=O)C(C(=O)Nc1ccccc1)CS2 (centres unmarked) | Chlamydia trachomatis | infectivity | serovar L2 |  | EC50 | < 60 nM |
| COc1ccc(C(=O)NN=Cc2ccc(O)c3ncccc23)cc1 | Staphylococcus aureus | bacterial growth | methicillin-resistant |  | EC50 | 56000 nM |
